Measurements of several laboratories.
Parts stem from different laboratories: compare values within a part only.

Block 1 — method: protein-binding microarray; form: double-stranded DNA, one strand shown; medium: in vitro; tested at: 2200 nM top; setting: 60-bp whole probe; together with: salmon DNA 0.4 mg/ml; baseline: random background probes; direction: higher = stronger binding; constant ends, left off below: GCCTAGCAC … GTCTTGATTCGCTTGACGCTGCTG
Target: Interferon regulatory factor 7, full length, phosphomimetic (IRF7, Homo sapiens, UniProt Q92985, residues 1-503, S471D/S472D/S475D/S476D/S477D/S483D/S484D/S487D)
Residues (chain): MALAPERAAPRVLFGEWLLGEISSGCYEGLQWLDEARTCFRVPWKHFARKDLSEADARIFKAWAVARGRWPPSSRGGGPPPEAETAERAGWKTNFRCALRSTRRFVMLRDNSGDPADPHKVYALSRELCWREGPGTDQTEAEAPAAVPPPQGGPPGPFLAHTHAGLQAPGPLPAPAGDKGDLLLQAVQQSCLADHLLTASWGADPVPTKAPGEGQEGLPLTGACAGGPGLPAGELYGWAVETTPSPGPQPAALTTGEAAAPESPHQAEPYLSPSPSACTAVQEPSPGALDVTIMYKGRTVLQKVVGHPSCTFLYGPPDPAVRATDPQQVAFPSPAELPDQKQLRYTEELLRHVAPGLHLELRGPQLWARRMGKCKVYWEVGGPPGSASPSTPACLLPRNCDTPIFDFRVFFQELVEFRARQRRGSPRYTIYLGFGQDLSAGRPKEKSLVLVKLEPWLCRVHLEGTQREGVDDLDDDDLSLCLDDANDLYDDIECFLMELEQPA
For `TGAGGACTGGACTATCGGTTAGTGCTA`, “fitted relative affinity” read -0.492 z-score.
`GACGGTTTCCTTCTCCTGAAGTGCTAG`: “fitted relative affinity” 3.02 z-score.
Under “fitted relative affinity”, `GACGGCTTCGGGACTGGGGACGTGCTA` is recorded as -0.797 z-score.
For `TTAGATCTCAGTATAGATTAGTGCTAG`, “fitted relative affinity” read -0.183 z-score.
For `TTAGGTATCGTTCTCGGTTAGTGCTAG`, “fitted relative affinity” read 1.33 z-score.
`TTAGGTTTCCTTCTCCCTTAGTGCTAG` — result for “fitted relative affinity”: 2.79 z-score.
For `CTCGCTATGTTGTCCAGGCTGGTGCTA`, “fitted relative affinity” read 0.645 z-score.
Under “fitted relative affinity”, `GACGCTATCAGTCTCGAGACGTGCTAG` is recorded as 0.625 z-score.
Under “fitted relative affinity”, `GACGAACTGAGTTTCGAGGCGTGCTAG` is recorded as 1.42 z-score.
For `GACGGTTTCGACAATGGGGACGTGCTA`, “fitted relative affinity” read 1.98 z-score.
`TTCGGACTGGGGTTTCGGTTAGTGCTA` — result for “fitted relative affinity”: 2.59 z-score.
For `TCAACTCTTTCTGTCAGACTGTGCTAG`, “fitted relative affinity” read 1.46 z-score.
`AAATTTTGATGAACTTAAGCGTGCTAG`: “fitted relative affinity” -0.728 z-score.
Under “fitted relative affinity”, `TCATTTTAAGTTCTCTGACTGTGCTAG` is recorded as 1.66 z-score.
`TCACCTCTGTTTTGAGCACTGTGCTAG`: “fitted relative affinity” 1.78 z-score.
`CTAGGTTTCGGTTTCGGTTAGTGCTAG` — result for “fitted relative affinity”: 17.9 z-score.
For `GACAATTTGGAAACCGAGTGGTGCTAG`, “fitted relative affinity” read -0.105 z-score.
Under “fitted relative affinity”, `TTAGGACTAGGTCTCGGTTAGTGCTAG` is recorded as -0.083 z-score.
`GACGGTATCGGGTATCAGGACGTGCTA` — result for “fitted relative affinity”: 0.199 z-score.
For `TCATCACTCTGTCCCTCACTGTGCTAG`, “fitted relative affinity” read 2.1 z-score.
`TTAGGACTGCTTCTCCTTCAGTGCTAG` — result for “fitted relative affinity”: 0.626 z-score.

Block 2 — method: RNA Bind-n-Seq; form: RNA; medium: in vitro; tested at: 365 nM; baseline: no-protein control; direction: higher = stronger binding
Target: RNA binding protein fox-1 homolog 2, RRM domain, GST-SBP tag (RBFOX2, Homo sapiens, UniProt O43251-10, residues 100-194)
Setting: natural RNA segment, single round, ends assumed
Residues (chain): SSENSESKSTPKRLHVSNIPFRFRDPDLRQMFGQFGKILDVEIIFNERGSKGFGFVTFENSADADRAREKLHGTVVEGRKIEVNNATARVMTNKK
`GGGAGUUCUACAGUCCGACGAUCUCUUGGUAUUAAAACACUUCUGUCCUGUGAGGUUUUCCCAAUGGUGUUUUUCUUGUAAAUGUGUUGGACAAAUGUGAAGAUGCGUUGUAGUUUACCCAUAUGCCCACAUUUGGAAUUCUCGGGUGCCAA` — result for “RBNS enrichment (R)”: 0.512.
For `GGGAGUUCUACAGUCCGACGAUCCUAGAUUAUCUUAACAAAUAAUACUCAGCUAAAUAUUUGCAUUUAGGAAUACUCCUAAAACAGAUAUUGCCAACUAGAUACACUGCCUCAAUCUUGACCAGACAAGAGAAUGGAAUUCUCGGGUGCCAA`, “RBNS enrichment (R)” read 0.381.
For `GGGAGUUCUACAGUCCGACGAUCGACCAUAGAAUUGCUCUCUAGGAGCUGGGCAUGGUGACCUACGUCUGUAUUCUCAGCACUCAGGAGACUGCUACAGCAGGAUUGAGAGAUCAGAGGCAGGCUUGUCUUUGUGGAAUUCUCGGGUGCCAA`, “RBNS enrichment (R)” read 0.273.
`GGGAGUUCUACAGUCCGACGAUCGUAUUCAGGCUGCUUUUGCUGCCUUUGGCCAGAGAGCUGGUUGAAGAUGUUUGUAAUCGUUUUCAGUCUCCUGCAGGUUUCUGUGCCCCUGUGGUGGAAGAGGGCACGACUGGAAUUCUCGGGUGCCAA` — result for “RBNS enrichment (R)”: 0.714.
For `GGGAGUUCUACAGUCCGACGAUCAUUAAAAAUUGCAUUGUGUUACAGAGCUAGAAAAUUUUAUGUAUGAAAAACGAUAAUAGCCUUACACUGAGUACAAAUAAUACUUUAAGAGCAUGUGAAGAUGUGAUCAUUGGAAUUCUCGGGUGCCAA`, “RBNS enrichment (R)” read 19.6.
For `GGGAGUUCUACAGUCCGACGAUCUUACUUCAAUGGCAGCAGCGAUCAAGAAAGUUCUCCAACCUUGAACAGCCAAAUGGAUUGACUACAGUGGGGGCAGCUAAUUAAUGAUUAAUCAGAAGCAUUUGAUAAUAUGGAAUUCUCGGGUGCCAA`, “RBNS enrichment (R)” read 0.641.
For `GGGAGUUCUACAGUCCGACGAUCUAAUAUCUUGCUGGAUUAAUGUUUUGUACAAUUACUAAAUUGUAUACAUUUUGUUAUAGAAUACUUUUUUCUAGUUUCAGUAAAUAAUGAAAAGGAAGUUAAUACCAAUAUGGAAUUCUCGGGUGCCAA`, “RBNS enrichment (R)” read 0.472.
`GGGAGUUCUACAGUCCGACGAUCAUGUUUACUUUUAUAUCCCUAGCACAAAGCAAGUGCCUGGCACAUAGUCAGUGCCCUAAGUAUUCGUAGAGUGAAGAAUGCCAGCCUCUCUUGUCCCUGGUUUCCUUAUGUGGAAUUCUCGGGUGCCAA` — result for “RBNS enrichment (R)”: 0.323.
Under “RBNS enrichment (R)”, `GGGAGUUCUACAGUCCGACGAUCAGCUUGUGUGUUCUUUUGUUAAUGUGUAGAGUUCUCCUUUCUCGAAAUUGCCAGUGUGUACUUGGCUUAACUCAAGAACAGUUUCUUCUGGAUUCCUUAUUUGAUUUAUUUGGAAUUCUCGGGUGCCAA` is recorded as 0.864.
For `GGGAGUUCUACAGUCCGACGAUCCCGCCCCGUGCUGAGCCUUCUGCUGAGGUCCUUGCGUGGAGCACACUCAUUCCUCCAAGCCCUUGCGCUCCCGUUUCUCUCUCUCUCCGUCCACGUUCCAGCCGAGUCACUGGAAUUCUCGGGUGCCAA`, “RBNS enrichment (R)” read 0.659.
Under “RBNS enrichment (R)”, `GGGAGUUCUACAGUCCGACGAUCAUGCAGUGUGAGGGCCCAAAGCUUAUCCUCAAAUAGUCCUGUUUGCCAGGCUCAGUUCCCACCCACACCAGCACUUCCCUUCCUUCUGGUUUUCUGCCUGUGUGCUGCCCUGGAAUUCUCGGGUGCCAA` is recorded as 0.471.
`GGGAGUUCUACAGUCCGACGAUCUCCGCUCUCUAACUACAUAAACAUUUAUCUGUAUCUCUCUGUCCCGGGCUGGGGGCAGGAGGAAUCUGCCAAAGACCGACAGUCUUCCUUUACUGCACUUCACAAGGUUCUGGAAUUCUCGGGUGCCAA`: “RBNS enrichment (R)” 1.57.

Block 3 — method: protein binding microarray; form: double-stranded DNA, one strand shown; medium: in vitro; tested at: not given; baseline: not given; direction: higher = stronger binding
Target: Histone acetyltransferase KAT6A, both winged helices, GST fusion (KAT6A, Homo sapiens, UniProt Q92794, residues 1-181)
Setting: 8-mer, flanks averaged, mean of 2 arrays, mostly near background
Residues (chain): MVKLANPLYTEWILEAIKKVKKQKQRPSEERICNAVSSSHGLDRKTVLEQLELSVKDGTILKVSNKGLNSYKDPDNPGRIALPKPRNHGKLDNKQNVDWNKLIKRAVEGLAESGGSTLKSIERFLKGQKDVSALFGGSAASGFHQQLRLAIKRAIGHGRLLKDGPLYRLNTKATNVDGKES
The E-score of `CAAGGAAG` is reported as -0.128.
The E-score of `TCTCGCCA` is reported as -0.116.
For `ACGCAGCT`, the E-score was 0.0996.
The E-score of `GACCATAC` is reported as 0.0257.
`ATTTTGGA` has an E-score of -0.134.
`CAAATAGG` has an E-score of -0.125.
The E-score of `AACATCCC` is reported as -0.0467.
`CTGAACCC` has an E-score of 0.0182.
For `ACGATGGC`, the E-score was -0.108.
`AGATTCTC` gave an E-score of -0.109.
With `AAGAGGTC` the E-score was -0.139.
For `AAGGCACT`, the E-score was -0.196.
`GCACACGA` has an E-score of 0.0934.
With `AACATCGC` the E-score was 0.158.
With `ATGCTCCC` the E-score was -0.0648.
With `GAGAACAA` the E-score was 0.00668.
With `ATCGTCGC` the E-score was 0.0933.
With `AGATACAT` the E-score was -0.0647.
With `AGGCCCGG` the E-score was 0.125.
The E-score of `AGGGAAGG` is reported as -0.219.
`TCGTGCCA` gave an E-score of -0.0766.
The E-score of `ACAGTGAG` is reported as -0.0864.
With `AACACAGT` the E-score was -0.152.
With `ACTCGAAG` the E-score was 0.000385.
With `ATAGGCTC` the E-score was -0.0572.

Block 4 — method: aptamer microarray, sandwich; form: DNA with 2'F-ANA; medium: in vitro; tested at: 200 nM; together with: Cy3 exosite-II aptamer, 400 nM; direction: higher = stronger binding; sequence: GGTTGGTGTGGTTGG
Target: Prothrombin, mature alpha-thrombin (F2, Homo sapiens, UniProt P00734)
Setting: whole 15-mer aptamer, many near background
`2'F-ANA at 1 2 6 7 12 13` — result for “mean fluorescence intensity”: 295 a.u.
For `2'F-ANA at 5 7 9 14 15`, “mean fluorescence intensity” read 68.4 a.u.
`2'F-ANA at 4 8 11 13` — result for “mean fluorescence intensity”: 225 a.u.
`2'F-ANA at 1 4 5 6 7 9 10 13`: “mean fluorescence intensity” 45.6 a.u.
For `2'F-ANA at 3 5 6 7 8 9 11 13 14 15`, “mean fluorescence intensity” read 50.5 a.u.
`2'F-ANA at 4 7 10 13`: “mean fluorescence intensity” 69.1 a.u.
For `2'F-ANA at 5 6 7 10 13 14`, “mean fluorescence intensity” read 43.7 a.u.
For `2'F-ANA at 1 5 6 9 10 11 13 15`, “mean fluorescence intensity” read 63 a.u.
`2'F-ANA at 4 7 8 9 11 12 14 15`: “mean fluorescence intensity” 122 a.u.
For `2'F-ANA at 2 4 8 9 11 12`, “mean fluorescence intensity” read 489 a.u.
For `2'F-ANA at 1 2 3 4 5 7 8 9 10 12 14 15`, “mean fluorescence intensity” read 46.4 a.u.
`2'F-ANA at 2 4 9 10 14`: “mean fluorescence intensity” 62.7 a.u.
Under “mean fluorescence intensity”, `2'F-ANA at 1 2 3 5 7 8 9 10 13 14` is recorded as 51.9 a.u.
`2'F-ANA at 3 7 14 15` — result for “mean fluorescence intensity”: 620 a.u.
`2'F-ANA at 1 2 3 6 8 11 12`: “mean fluorescence intensity” 358 a.u.
For `2'F-ANA at 4 7 8 10 11 15`, “mean fluorescence intensity” read 88.2 a.u.
`2'F-ANA at 1 2 3 4 5 7 12 13 15` — result for “mean fluorescence intensity”: 76.2 a.u.
Under “mean fluorescence intensity”, `2'F-ANA at 1 2 3 4 5 6 7 8 11` is recorded as 58.1 a.u.
`2'F-ANA at 1 2 3 5 6 7 10 14` — result for “mean fluorescence intensity”: 44 a.u.
`2'F-ANA at 1 2 3 7 9 12 13` — result for “mean fluorescence intensity”: 313 a.u.

Repeated from above (block 3):
With `ATGCTCCC` the E-score was -0.0648.
The E-score of `TCTCGCCA` is reported as -0.116.
`ATTTTGGA` has an E-score of -0.134.
With `AGGCCCGG` the E-score was 0.125.
`CAAATAGG` has an E-score of -0.125.
The E-score of `GACCATAC` is reported as 0.0257.
`AGATTCTC` gave an E-score of -0.109.
For `ACGATGGC`, the E-score was -0.108.
`CTGAACCC` has an E-score of 0.0182.
The E-score of `AGGGAAGG` is reported as -0.219.
With `ATCGTCGC` the E-score was 0.0933.
